# Published values from different studies.
# Lines come from different studies, so protocols differ.
# Medium: plasma
# Route: oral
Compound,host,dose,setting,Cmax
CCCOc1ccc([C@H]2CNC(=O)N2c2ccc3[nH]cnc3c2)cc1,human,100 mg,"single dose, fasted",421 ng/mL
C#C[C@]1(CO)O[C@@H](n2cnc3c(N)nc(F)nc32)C[C@@H]1O,human,15 mg,"single dose, fasted",390 nM
CNC(=O)c1ccc(-c2cnc3ncc(Cc4ccc5ncccc5c4)n3n2)cc1F,human,400 mg twice daily,"multiple doses, steady state, patients",4910 ng/mL
CCCCCN1C[C@H](O)[C@@H](O)[C@H](O)[C@@H]1CO,male human,100 mg,"single dose, fasted, healthy volunteers",918 ng/mL
C[C@@H]1CCC[C@H](n2cnc(-c3cc(Cl)ccc3-n3cc(Cl)nn3)cc2=O)c2cc(ccn2)-c2c(cnn2C(F)F)NC1=O,human,4 mg,"single dose, fasted, healthy volunteers",13.3 ng/mL
Nc1ncc(-c2cnn(CCO)c2)c2scc(-c3ccc(NC(=O)Nc4cccc(F)c4)cc3)c12,human,440 mg,patients,1270 ng/mL
Nc1ccc(-c2nc([C@H]3CCc4cc(-c5cc(Cl)ccc5-n5cnnn5)cc(=O)n43)c(F)[nH]2)c(F)n1,human,300 mg,"single dose, fasted",2080 ng/mL
CNCc1ccc(-c2[nH]c3cc(F)cc4c3c2CCNC4=O)cc1,human,840 mg,"multiple doses, twice daily, steady state, patients",3030 ng/mL
CS(=O)(=O)n1cc2c(n1)CN([C@H]1CO[C@H](c3cc(F)ccc3F)[C@@H](N)C1)C2,male human,5 mg,"single dose, fasted",142 nM

# Some of these lines once more:
Compound,host,dose,setting,Cmax
CCCCCN1C[C@H](O)[C@@H](O)[C@H](O)[C@@H]1CO,male human,100 mg,"single dose, fasted, healthy volunteers",918 ng/mL
CS(=O)(=O)n1cc2c(n1)CN([C@H]1CO[C@H](c3cc(F)ccc3F)[C@@H](N)C1)C2,male human,5 mg,"single dose, fasted",142 nM
